Measurements collected from several papers.
Each numbered part is a random draw from the data of one study; scales do not carry over between parts.

Study 1
Target: RNA binding protein fox-1 homolog 2, RRM domain, GST-SBP tag (RBFOX2, Homo sapiens, UniProt O43251-10, residues 100-194)
Technique: RNA Bind-n-Seq
Form: RNA
Matrix: in vitro
Tested at: 365 nM
Setting: natural RNA segment, single round, ends assumed
Reference: no-protein control
Direction: higher = stronger binding
Residues (chain): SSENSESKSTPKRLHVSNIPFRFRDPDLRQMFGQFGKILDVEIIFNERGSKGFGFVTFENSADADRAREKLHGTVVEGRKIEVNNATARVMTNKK
Under “RBNS enrichment (R)”, `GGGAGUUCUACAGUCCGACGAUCCUAACUUUCCUUGGGGUGGGAGCACAGCUGGACUGUGUAGCCCGGGCUUGACCCUGAGCCAUAGGGAAACUGAACUGUGGGGGCCUGUGGUUGACAGGCCUGUGAAAUCCUGGAAUUCUCGGGUGCCAA` is recorded as 0.639.
`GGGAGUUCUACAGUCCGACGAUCUGAGAAAAUGUAAAGGCUGCCAUUAUGGAUAUUAGGUAUCCCAACAUAACCAUCUGGAGUGUGUCCAGUUUAUUUUUCAUAGGACCAAUUUUUAUUUGCAGCUUAGGUUUUGGAAUUCUCGGGUGCCAA`: “RBNS enrichment (R)” 0.632.
`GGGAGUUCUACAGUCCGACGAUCGCAGGGUGUCUCUCCAACAGCCCGACAGGCCUCAUCUUUUUGGUUGGAUACCUUUGAACUCCAUGGUUACGUGUUAGGUCCACAUUUGUGUUUUUUUCUAGCCUACCUAUUGGAAUUCUCGGGUGCCAA`: “RBNS enrichment (R)” 0.506.
Under “RBNS enrichment (R)”, `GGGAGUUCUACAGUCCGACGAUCUCACAGUUGUUAAAGUCUGUUCCAAGGCAUCACCUUCCUUCUCUACCCAACAACCCUGUGUAACAACUAAAGUAGAAUUAUCUCUCAUUUGUUGUUGUUUUUCCUCAAAAUGGAAUUCUCGGGUGCCAA` is recorded as 0.329.
`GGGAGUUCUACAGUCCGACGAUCCAAACAUUCAUGUGGCUUCGCUGGGGAGGAAAAAAAUAAGCACCUACUGUGUGCCAGGCACUAUGAGGCACUUUUCUAUUUAUCCUCUUUUAAGAUAGGACUAAGAGUUCUGGAAUUCUCGGGUGCCAA`: “RBNS enrichment (R)” 0.412.
For `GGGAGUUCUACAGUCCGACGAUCCAGCAGAGAGCCCCAGCCUCACCCCUGAGGAGCACCUGUGGUCUGUCCCCUUGGUCCUGCUUAUGGCUGGACCGGCCCUGCAGGAGGUGGUGGAGCCGUGAAGGAGGCCGUGGAAUUCUCGGGUGCCAA`, “RBNS enrichment (R)” read 0.317.
For `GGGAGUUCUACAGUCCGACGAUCUCAAUUCCAGAGCCCCUCCACUCUAACGCUAUGCUUUGCUUAUUAUUGCUACAGAGAUAACUGCCCUGUAGUAUCCCAAUGGAUAUCACUCCCAGUCUCAAAUUGGGCUGUGGAAUUCUCGGGUGCCAA`, “RBNS enrichment (R)” read 0.645.
For `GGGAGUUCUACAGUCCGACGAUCCCAUAGAGUUUUCAAAAUGUGAAUCUUUGGAAGCCUUGAGUUCAGAAUCUGCUGCUCUGGAAUAUUUCCCUUCGAUCUUAUCUCAGUCACUUCGUUUUUGAGAAGAGUGAUGGAAUUCUCGGGUGCCAA`, “RBNS enrichment (R)” read 0.391.
Under “RBNS enrichment (R)”, `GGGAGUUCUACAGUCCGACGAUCUCUAUGAUAUGAAUACUGUGUGUGUGAGUUGAAGCAUUACCUGAUAUUAAAUGAAGGAUUUGGAGAAUGGUGAAUUUUUUUCUUGGUUCAUCUCUGAGUUUUGACCACAGUGGAAUUCUCGGGUGCCAA` is recorded as 0.569.
`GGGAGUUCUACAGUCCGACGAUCAAUGUAAAAGUGUCAUACAAUUUAGAAGAUUUUUGAAGAUGGUAAACUUAGAAGAAUUCUAUGUUCUGAAAUGCACACUUUUAGAAUGUUUUUCUUUGAAAACAGGCUAAUGGAAUUCUCGGGUGCCAA` — result for “RBNS enrichment (R)”: 0.655.
Under “RBNS enrichment (R)”, `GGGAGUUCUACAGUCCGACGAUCGUGGAUUUUUUUAACUAUUAUUCAAAAGCAAAACUGAGUUUUGUUUUGUUUGGUUUUUUAAGAAGAAUUUAUAUCCGGGUUUAGUGUUUAUCAUAUAUAUGGGUACUCUGUGGAAUUCUCGGGUGCCAA` is recorded as 0.43.
`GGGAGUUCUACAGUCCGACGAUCUUGGGGGGAAAAAAAUAUCCAUUGUGAAAAUGAAAGUACAGCCUAGCUCACCUGGGGCCUCCCUGCUCACACCAAUGCAGGUUUCAAUAAAGACUCAGCCAUGCUUCCGUUGGAAUUCUCGGGUGCCAA` — result for “RBNS enrichment (R)”: 0.468.

Study 2
Target: RING finger protein unkempt homolog, zinc fingers 1-6, SBP tag (UNK, Homo sapiens, UniProt Q9C0B0, residues 30-357)
Sequence of UniProt Q9C0B0 (30-357, looked up): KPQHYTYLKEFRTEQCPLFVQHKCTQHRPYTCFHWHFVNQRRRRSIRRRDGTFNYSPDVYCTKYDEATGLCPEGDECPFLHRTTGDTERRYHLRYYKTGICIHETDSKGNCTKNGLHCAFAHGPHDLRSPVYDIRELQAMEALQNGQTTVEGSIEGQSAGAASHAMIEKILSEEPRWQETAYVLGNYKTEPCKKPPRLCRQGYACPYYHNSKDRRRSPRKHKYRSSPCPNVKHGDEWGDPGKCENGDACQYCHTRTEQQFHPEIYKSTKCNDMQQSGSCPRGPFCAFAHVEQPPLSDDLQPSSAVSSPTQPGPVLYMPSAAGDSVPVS
Technique: RNA Bind-n-Seq
Form: RNA
Matrix: in vitro
Tested at: 100 nM
Setting: RNA with constant flanks, vertebrate orthologous sites, ends assumed
Reference: input RNA pool
Direction: higher = stronger binding
`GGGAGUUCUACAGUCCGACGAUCAGGUUUAUUUCAUGCCCUGGACCCCUUACAGAACAGAUACACUUAUUGAGUACAACUCGCUCGAUGAUUUUCAAAACUCUCGACAGACUACGACGUAUAAACUACCCCAUCGGGUCGAUGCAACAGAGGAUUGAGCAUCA` gave a bound/input enrichment of 0.459 ratio.
`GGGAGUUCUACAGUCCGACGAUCGUUUUUUUAAUUUAUUUUUCUUUCCUUUUCUUUUUCGGGGGUAAAGUUUGCUCUACCAAAUAGUGAUCGUAACAAACUGAUCUGUUAUGGAUGUUGCUAUAGUGACAUGCAAUUAUAUAUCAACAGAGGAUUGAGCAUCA` gave a bound/input enrichment of 2.55 ratio.
The bound/input enrichment of `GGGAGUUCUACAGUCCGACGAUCCAGGGUGGGACCCGGGACCUACUGCUCAGUGGCCCGCUGGCCACCUCAGCUAAGCCACUUUAGGUCCAUUUUUUAUUUUAACAGUGCUCUUCCAUUCUGUGCGUAAGCCCGAGAUUUGGACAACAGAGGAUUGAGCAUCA` is reported as 0.889 ratio.
`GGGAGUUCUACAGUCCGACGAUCUGAGGGUCUGCUGACCACUCACUGUUAAUGUCUGGUAUCUGUAAACAUUUUCUGUUCUUAAAGUCUUUUACUUGUAUAAUUGAUGUUCUUUAAAAUUGUCAAUGUAUAACAGGGCUUAUGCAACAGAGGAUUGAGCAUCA` has a bound/input enrichment of 0.287 ratio.
`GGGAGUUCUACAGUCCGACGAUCAACAUAUGUAGAAAAACCAGUUUCACUGAACCCAUUGUCAAGCUUUCUCCUAAAAUUUUAUUUGGACUUCUUUUGUUUUAUACAAGUUUGCUGUGUUUGUCAUUAUUAGUCCACAAUUAACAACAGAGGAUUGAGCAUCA` has a bound/input enrichment of 0.491 ratio.
The bound/input enrichment of `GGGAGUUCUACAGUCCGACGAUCGUUGUGAUCCCUUUAACAUACACAGGAAACUAUCAAAGAAAAACUUGCGAGCAAUUGACUUAGAUGAUGCAGCUUUUCUGAGUGCCAAGUUUGGAAGACAGUUUGUUCCUGGUUGGAAGCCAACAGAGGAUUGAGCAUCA` is reported as 0.821 ratio.
With `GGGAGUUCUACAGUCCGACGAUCCAAUUCCAUGGUUGAAGGUUCAGAACUCAAAAAGGUCCGCUCGAACUCUAGAAUUUACCAUAGAUAUUUUUUACUGGAUGCUGACAUGCAGAGCUUGAGGUGGGAGCCAUCGAAGAAGGACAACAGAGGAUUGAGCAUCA` the bound/input enrichment was 3.09 ratio.
For `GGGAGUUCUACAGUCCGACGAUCCAAUGCCAUGGUGGAUGGCUCUGAGCUGAAAAAAGUGCGAUCCAAUUCACGUGUUUACCACCGCUACUUUCUUCUUGACGCCGACAUGCAAUCAUUGAGGUGGGAGCCAACGAAGAAGGACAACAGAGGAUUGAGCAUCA`, the bound/input enrichment was 0.38 ratio.
With `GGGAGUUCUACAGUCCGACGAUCCAUUUUCUUAUUUUAGGUAUCAUUGCCCAAUGCCCAAGAUCUUUUAUGUUCAGCUGACUGUAGGAAAUAAUGAAUUUUUUGGAGAAGGAAAGACUCGGCAGGCUGCUAGACACAACGCUGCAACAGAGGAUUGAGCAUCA` the bound/input enrichment was 1.34 ratio.
For `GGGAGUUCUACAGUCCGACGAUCCCCCAUAAUCCCAUCUCAUCUGUCUCUUAAUGGAAUGGGAUGUUCCUGCCUCUGGAUUCAUUGGAGCCAUGCAUGUACUUGAAGGAUGUAUGAGUCAGACACUUACUGGCAAAUGGGACACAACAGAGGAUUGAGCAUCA`, the bound/input enrichment was 0.458 ratio.
`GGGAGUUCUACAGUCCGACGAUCUGAGCGAGAGAUGCCUGUGCUUUCUCAUAUUUAAUUUGCUCUUUUUAAGAUAUUCCAACCUAGAGUUUUUGAUGGAACUGAUAUAUUGACAAUUCUCAUCUAAGUCCUUUUAUAAAGAAUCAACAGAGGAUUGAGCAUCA` has a bound/input enrichment of 0.545 ratio.

Study 3
Target: Histone acetyltransferase KAT6A, winged helix 1, GST fusion (KAT6A, Homo sapiens, UniProt Q92794, residues 1-85)
Technique: protein binding microarray
Form: double-stranded DNA, one strand shown
Matrix: in vitro
Tested at: not given
Setting: 8-mer, flanks averaged, mean of 2 arrays, mostly near background
Reference: not given
Direction: higher = stronger binding
Residues (chain): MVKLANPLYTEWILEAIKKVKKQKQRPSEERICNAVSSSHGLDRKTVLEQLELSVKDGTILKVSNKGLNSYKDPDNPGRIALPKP
`CTTAACCC` has an E-score of -0.0442.
`TTGCAAAA` gave an E-score of -0.273.
`CGCAGATA` has an E-score of 0.00596.
With `ACATCGGT` the E-score was -0.0377.
With `AATGCATC` the E-score was -0.289.
`GCAGACGA` gave an E-score of -0.0511.
For `CATCGAAC`, the E-score was -0.0494.
`CCTGTGTA` has an E-score of -0.157.
`TTAATTAA` has an E-score of -0.248.
`GCCCATCA` gave an E-score of -0.105.
With `CCTCGCGC` the E-score was 0.334.
`CGCTTCAA` gave an E-score of 0.245.
With `GGTAAACC` the E-score was 0.0784.
`GTTTCCGA` gave an E-score of 0.0915.
The E-score of `ACGTTGCA` is reported as -0.25.
For `CCCTTTAG`, the E-score was -0.179.
The E-score of `CGGATCAC` is reported as 0.0429.
With `ACTAAGCT` the E-score was -0.247.
`CTTGTCTC` has an E-score of -0.184.
`GTCGTGGA` has an E-score of 0.0966.
`GACTTTTA` has an E-score of -0.112.
`AGAGGGGA` has an E-score of -0.191.
`CACCAAAA` has an E-score of -0.0214.
`AAGTAGTA` gave an E-score of -0.166.
The E-score of `CTAAGTAC` is reported as 0.0364.

Study 4
Target: Interferon regulatory factor 5, full length, phosphomimetic (IRF5, Homo sapiens, UniProt Q13568-2, residues 1-514, K96S/S451D/S453D/S456D/S462D)
Technique: protein-binding microarray
Form: double-stranded DNA, one strand shown
Matrix: in vitro
Tested at: 250 nM
Setting: 60-bp whole probe
With: salmon DNA 0.4 mg/ml
Reference: random background probes
Direction: higher = stronger binding
Shared flanks, not repeated: GCCTAGCAC … GTCTTGATTCGCTTGACGCTGCTG
For `TTAGAACTGGGGTTCCGATTAGTGCTA`, the log fluorescence was 0.245 z-score.
With `TTAGATCTAAGTCTCGATTAGTGCTAG` the log fluorescence was 0.72 z-score.
For `TTAGATTTCAGTTCCGTTTAGTGCTAG`, the log fluorescence was 2.66 z-score.
`TTATGTATCGGTATCGGTTAGTGCTAG` has a log fluorescence of 9.45 z-score.
For `GTAGGTATCCTTATCCTTTAGTGCTAG`, the log fluorescence was 0.102 z-score.
With `ATAGGTCTCGGTTTCGGTTAGTGCTAG` the log fluorescence was 8.84 z-score.
`TTAGATATCGGGAGTGGATTAGTGCTA` has a log fluorescence of 1.2 z-score.
With `TCATATTAAAATTTAATACTGTGCTAG` the log fluorescence was 0.74 z-score.
`GACGATTTCAGTTCGGAGACGTGCTAG` gave a log fluorescence of 0.891 z-score.
`GACGGACTGCTTATCCTGAAGTGCTAG` gave a log fluorescence of -0.565 z-score.
The log fluorescence of `CTTGGCAAGATGAGGAAGATGTGCTAG` is reported as -0.535 z-score.
For `TTTGGTCTCCTTATCCTTTAGTGCTAG`, the log fluorescence was -0.00425 z-score.
With `GACGGACTGCTAATGCTGACGTGCTAG` the log fluorescence was -0.707 z-score.
The log fluorescence of `TCATTTTCATTTTCCAAACTGTGCTAG` is reported as 4.06 z-score.
`TTAGGTATCGAGTATCGGTTAGTGCTA` gave a log fluorescence of 7.76 z-score.
For `GACGGTATGGGTCTCGGGACGTGCTAG`, the log fluorescence was -0.365 z-score.
`GACGGTTTCGACTTTCGGAACGTGCTA` has a log fluorescence of 8.61 z-score.
The log fluorescence of `GACGGTATCGACTATCGCGACGTGCTA` is reported as 2.84 z-score.
The log fluorescence of `GACGGACTGCTTATGCTGACGTGCTAG` is reported as -0.499 z-score.

Repeated from above (study 4):
`GACGATTTCAGTTCGGAGACGTGCTAG` gave a log fluorescence of 0.891 z-score.
`GACGGACTGCTTATCCTGAAGTGCTAG` gave a log fluorescence of -0.565 z-score.
The log fluorescence of `CTTGGCAAGATGAGGAAGATGTGCTAG` is reported as -0.535 z-score.
For `TTTGGTCTCCTTATCCTTTAGTGCTAG`, the log fluorescence was -0.00425 z-score.
With `GACGGACTGCTAATGCTGACGTGCTAG` the log fluorescence was -0.707 z-score.
